{"data": "Measured values of several laboratories", "note": "Parts stem from different laboratories: compare values within a part only."}
{"data": "Set 1", "target": "RING finger protein unkempt homolog, zinc fingers 1-6, GST-SBP tag (UNK, Homo sapiens, UniProt Q9C0B0, residues 30-357)", "method": "RNA Bind-n-Seq", "form": "RNA", "sample": "in vitro", "concentration": "not given", "setting": "RNA with constant flanks, ends assumed", "reference": "input RNA pool", "reading": "higher = stronger binding", "all sequences stand within": "GGGAGUUCUACAGUCCGACGAUC … CAACAGAGGAUUGAGCAUCA", "Construct (chain)": "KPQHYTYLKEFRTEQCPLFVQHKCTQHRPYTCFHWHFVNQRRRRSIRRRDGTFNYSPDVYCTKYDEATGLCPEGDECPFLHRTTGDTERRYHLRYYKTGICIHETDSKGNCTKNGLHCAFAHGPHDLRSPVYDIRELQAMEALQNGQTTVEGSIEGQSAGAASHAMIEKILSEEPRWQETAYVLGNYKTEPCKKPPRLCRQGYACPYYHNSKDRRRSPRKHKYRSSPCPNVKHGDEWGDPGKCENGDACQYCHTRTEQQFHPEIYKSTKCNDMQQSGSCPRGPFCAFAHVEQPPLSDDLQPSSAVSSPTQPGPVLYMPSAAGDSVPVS"}
{"Strand": "GCUAAUCAAGAGCCAGGUAUUUUACAACAAAAAAAUGCAGUUCAGAUUAUUAGUUCUGCUUCCGAUACUGAUAAUGAAUCUACAAAAGAUACAGAAAAUACUUUUGUCCUAGGAGAUGUU", "bound/input enrichment": "3.09 ratio"}
{"Strand": "GCGAUAUCAAACAGAACUAUCUGGAAGCAUUUACUUCCAAUCCAAAACGGAGCUUUGUCCCGUGCUUGUCACAAAUCCACAUACUCUUCUCUUCCGGAUGACUACAAUUGCCAGGUGGAC", "bound/input enrichment": "0.192 ratio"}
{"Strand": "CAAGAAACAGAAGAUGCUAUUGGAUAUUGCUUGACAUUUGAACACAGAGAAAGAAUGUUUAACCGACUCCAGGGAACAUGCUUCAAAGGACUUAAUGUUCUCAAGCAAUGUUGAGUUGGC", "bound/input enrichment": "0.0946 ratio"}
{"Strand": "CGUGGGAAAACUAGAGCUGAAACAAUGGGACCCAUGGGUUGGAUGAAGUGUCCUCUUGCCCGCACCAAUAAAAGAUUUCUAAUUAACACAAUUAAAAACACAUUGCCCUCUCAUAAAGAG", "bound/input enrichment": "0.78 ratio"}
{"Strand": "GCCAAUCCAGGUACAAACUGGGGGGAGACUUUAAAACCUGGCCCCCAACAGAACUGGGCCCGCAAACCCCAAGACAACAAUGUGAGUAACUGGGGAGGAGCUGCUUCUGUGAAACAGACA", "bound/input enrichment": "0.12 ratio"}
{"Strand": "CAUAGGCCUGGGCUAGAGUGUCAAUGGCAGCCAGGGGUCUUCUCCAUCUCCAGAGGCCUUUACCGAGCCGGCCAGAAUAUACAUUCCCUUCUGGCAAAAACCACUGGCACCCAGGAUCAU", "bound/input enrichment": "0.226 ratio"}
{"Strand": "AAGCACUUUCAACAGGCAAAAAUGAUAUUGGAAAAUAUUCCUAACCCGGACCAUGAGGUUAACCGAAUUUUAAAGGUUGCCAAACCCAACUUUGUGGUUAUGAAGUUAUUGGCAGGAGGA", "bound/input enrichment": "0.388 ratio"}
{"data": "Set 2", "target": "Histone acetyltransferase KAT6A, winged helix 1, GST fusion (KAT6A, Homo sapiens, UniProt Q92794, residues 1-85)", "method": "protein binding microarray", "form": "double-stranded DNA, one strand shown", "sample": "in vitro", "concentration": "not given", "setting": "8-mer, flanks averaged, mean of 2 arrays, mostly near background", "reference": "not given", "reading": "higher = stronger binding", "Construct (chain)": "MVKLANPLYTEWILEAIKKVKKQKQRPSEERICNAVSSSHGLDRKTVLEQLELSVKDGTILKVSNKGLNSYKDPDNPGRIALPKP"}
{"Strand": "ATAGAGAT", "E-score": -0.132}
{"Strand": "ACGTTAAT", "E-score": -0.0179}
{"Strand": "CGTCGCTC", "E-score": 0.307}
{"Strand": "AGATACAG", "E-score": -0.103}
{"data": "Set 3", "target": "Prothrombin, mature alpha-thrombin (F2, Homo sapiens, UniProt P00734)", "method": "aptamer microarray, sandwich", "form": "DNA with 2'F-ANA", "sample": "in vitro", "concentration": "200 nM", "setting": "whole 15-mer aptamer, many near background", "added": "Cy3 exosite-II aptamer, 400 nM", "reading": "higher = stronger binding", "strand": "GGTTGGTGTGGTTGG"}
{"Modification": "2'F-ANA at 3 4 6 7 9", "mean fluorescence intensity [a.u.]": 577}
{"Modification": "2'F-ANA at 2 3 5 7 9 10 14 15", "mean fluorescence intensity [a.u.]": 80.4}
{"Modification": "2'F-ANA at 3 4 5 7 8 9 10 12 13 14", "mean fluorescence intensity [a.u.]": 54.4}
{"Modification": "2'F-ANA at 2 3 5 7 9 10 12 13 14", "mean fluorescence intensity [a.u.]": 50.5}
{"Modification": "2'F-ANA at 3 4 8 10 14 15", "mean fluorescence intensity [a.u.]": 190}
{"Modification": "2'F-ANA at 2 3 4 5 7 8 9 10 11 12 13 15", "mean fluorescence intensity [a.u.]": 55.1}
{"Modification": "2'F-ANA at 1 4 6 7 8 9 13 14 15", "mean fluorescence intensity [a.u.]": 51.3}
{"data": "Further values, each from its own experiment"}
{"Molecule": "PhoQ, residues 284 288 289 292 302 303 TASMAF", "target": "PhoP, residues 12 14 15 18 19 NHFIF (Escherichia coli, UniProt P23836)", "assay": "Sort-seq, item: YFP reporter", "system": "E. coli", "setting": "PhoQ-PhoP variant library, added: 10 µM Mg2+", "scale": "reference: high Mg2+ state, higher = stronger signaling", "quantity": "fold induction", "value": 15.7}
{"note": "For quick reference, copied from above (set 3):"}
{"Modification": "2'F-ANA at 2 3 5 7 9 10 12 13 14", "mean fluorescence intensity [a.u.]": 50.5}
